Measured values collected from several papers.
Parts stem from different laboratories: compare values within a part only. Substitutions count along the parent as printed.

Set 1
Target: RNA binding protein fox-1 homolog 2, RRM domain, GST-SBP tag (RBFOX2, Homo sapiens, UniProt O43251-10, residues 100-194)
Technique: RNA Bind-n-Seq
Form: RNA
Medium: in vitro
Tested at: 365 nM
Notes: natural RNA segment, single round, ends assumed
Reference: no-protein control
Direction: higher = stronger binding
Shared flanks, not repeated: GGGAGUUCUACAGUCCGACGAUC … UGGAAUUCUCGGGUGCCAA
Residues (chain): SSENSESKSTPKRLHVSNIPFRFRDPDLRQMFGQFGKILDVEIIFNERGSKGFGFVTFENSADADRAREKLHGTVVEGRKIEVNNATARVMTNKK
| Sequence | RBNS enrichment (R) |
| --- | --- |
| UGCCAGCUGGUGUUUGGAAGUAGGAACCAUGAUGGCAUUACCUGGACAAGGAGAUUGGGGACAACUCUUAAGUCUCACACAGGAGGCUUUUAAACACUAAAAUGUCUAAU | 0.643 |
| UGCUCGUUAUAUUGUGAUCCAGUACAUUUUAUGUUAAAUUGUUUAUCAGCCAUUUCUGUUGUGAACUGUAGAAGAUCUUAAAUUGGGAUUGGACUCACUCUCUGUUCCAC | 0.563 |
| GUGUCUGUUUUGUUUUGUUUGUUUCGUUUUUAUUUUUCAGUUAAAGCACGCACAGACAUACAUGUCGAGAGCGGACUUUAGGCUUUCAUGUGUUAAACCGCUUGAGUUAC | 1.54 |
| AACACUACCCCACCCCCAACUAGGAGGAACCUCUGUUUUCAAGAGAGAUGCCUGUCCUGUGCUUGGAUAGUCAGUCAAUUAUUUGUGUAUGAAACAAUGUACAAAUCAAU | 0.269 |
| CUGUCUUGGGGCCACUUUCAGAGCCCCCAGCCCUGGGAACCACUCCCACCACAGGCAUAAGCUAUCACCUAGCAGCCUCAAAACGGGUCAGUAUUAAGGUUUUCAACCGG | 0.314 |
| CUCAGGAGCCUCAACUGUUUAUUUUGUAGCUGAUGGCACAGUUGAGCCCAAAGCAGGUUCUAAUAAGAAUGCACCAAAGCCUUCAGCCUUAGCAAAGACAACUGCUCCUG | 1.53 |
| UCACAUGGGCUCUUUGGGGGUCUGUCUGCUGGGGCAGGAAUAAUCCCAGUUCUCUGACUCUCGCUCUAGAGUUGAGAACAGGCAGGGCCUGGUGUGCUCUGGGAUGUGCA | 5.9 |
| UCAAAGCUUUAUUCUGUCUGCCUAAGAGAAUCAACCAAAGGUGAUUCUCCUAAAGAGCAGUGAAGGAAAUGUCAGGUUAGCAGGACCCAAGUUUUGGGUGUGAAAUGUUG | 0.34 |
| GGCUCAUUUGAAGAUUAAUGUUCCAUGCCUUUGUGGUCAAAGGGUCAGCACUUAACACAGGAAAAAACUAGGUGUUGUUUUGUUUUGUUAUUUUGGACAACAUAAAAUUC | 0.935 |
| CACGAGACCCCGGCUUCCUUUCCCAAGCCUUCGGGCGUCUGUGUGCGCUCUGUGGAUGCCAGGGCCGACCAGAGGAGCCUUUUUAAAACACAUGUUUUUAUACAAAAUAA | 0.435 |
| CUUUGUGUGGUGCUGAUGCUGUGCGCAGUAGGAUUCUUGGAUGACUCUCCAUCAGUCACAGACUCCCCCUGUUGCAAAGUGUCAGGCUGACUCGACAGUCACCGUAAAAU | 0.548 |
| ACAGUUUUAGAAGUCAGUAGAAUAAAACCUUAAAGCGUUCUUAUAAUAUGGCAUCUUUCGAUUUCUGUAUAAAAACAGACCUUUUAAAAAAUAUUUCUGUAACUUAAGAA | 0.751 |

Set 2
Target: Histone acetyltransferase KAT6A, both winged helices, GST fusion (KAT6A, Homo sapiens, UniProt Q92794, residues 1-181)
Technique: protein binding microarray
Form: double-stranded DNA, one strand shown
Medium: in vitro
Tested at: not given
Notes: 8-mer, flanks averaged, mean of 2 arrays, mostly near background
Reference: not given
Direction: higher = stronger binding
Residues (chain): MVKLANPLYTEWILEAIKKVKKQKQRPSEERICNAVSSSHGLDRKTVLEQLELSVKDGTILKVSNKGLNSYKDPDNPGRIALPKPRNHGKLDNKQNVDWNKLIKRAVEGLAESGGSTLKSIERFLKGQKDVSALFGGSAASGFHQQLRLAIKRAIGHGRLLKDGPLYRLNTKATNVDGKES
| Sequence | E-score |
| --- | --- |
| GTTTGGTA | -0.0493 |
| CACTAACA | -0.124 |
| GGTAGGAA | -0.0915 |
| CTAGATAA | -0.288 |
| CCGTTTAA | 0.209 |
| CCCAATTC | -0.279 |
| AGGTTCGC | 0.0655 |
| CCCTAACC | -0.0205 |
| ACTACGCC | 0.0972 |
| AGCGTCTC | 0.129 |
| AATGGAGG | -0.142 |
| CAAGCTCG | -0.132 |
| AAAGCTGC | -0.0284 |
| AGGTAGCA | -0.216 |
| AGCCGCTG | 0.286 |
| CAGCACAA | -0.0758 |
| CAAACCCG | 0.221 |
| CGCATGAG | 0.0772 |
| ACAAGTTA | 0.0593 |
| CCCAGACC | -0.124 |

Set 3
Target: ABI1, truncated, D143A, DHFR fusion (Arabidopsis thaliana)
Technique: DHFR PCA, deep sequencing
Medium: yeast
Notes: methotrexate growth selection, single substitutions
Added: (+)-ABA 200 µM
Reference: wild-type fitted maximum
Direction: higher = stronger binding
Starting sequence: PYL1, truncated, DHFR fusion (Arabidopsis thaliana); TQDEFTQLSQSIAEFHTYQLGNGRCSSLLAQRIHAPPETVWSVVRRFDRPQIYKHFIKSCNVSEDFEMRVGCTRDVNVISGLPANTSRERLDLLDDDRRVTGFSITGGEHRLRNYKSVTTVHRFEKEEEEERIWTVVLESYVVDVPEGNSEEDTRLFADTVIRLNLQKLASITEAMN; partner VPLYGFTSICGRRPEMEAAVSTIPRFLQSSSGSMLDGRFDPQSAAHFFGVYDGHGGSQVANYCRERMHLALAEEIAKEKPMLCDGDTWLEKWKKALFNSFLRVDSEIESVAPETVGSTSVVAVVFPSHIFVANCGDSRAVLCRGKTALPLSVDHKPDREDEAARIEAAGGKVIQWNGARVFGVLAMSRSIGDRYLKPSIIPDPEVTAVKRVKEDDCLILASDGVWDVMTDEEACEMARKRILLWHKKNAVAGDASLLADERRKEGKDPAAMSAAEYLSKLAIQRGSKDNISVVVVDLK
| Change | relative binding score [%] |
| --- | --- |
| T173D | -11.1 |
| F56I | 4.85 |
| V76S | 45.9 |
| E128F | 102 |
| S171V | 94.9 |
| A170M | 93.8 |
| R24H | 91.7 |
| G71F | 42.7 |
| R123E | 110 |
| F47L | -11.7 |
| H110P | 28.7 |
| M68A | 92.5 |
| C60E | 10.9 |
| D96M | 42.7 |
| R163I | 45.3 |
| T39P | 63.1 |

Set 4
Target: Fragile X messenger ribonucleoprotein 1, C-terminal low-complexity region (Fmr1, Mus musculus, UniProt P35922)
Technique: RNA Bind-n-Seq
Form: RNA
Medium: in vitro
Tested at: 200 nM
Notes: whole 134-nt RNA, ends assumed
Added: 150 mM KCl
Reference: input library
Direction: higher = stronger binding
Shared flanks, not repeated: GGGAGUUCUACAGUCCGACGAUC … UGGAAUUCUCGGGUGUCAAGG
| Sequence | log2 enrichment |
| --- | --- |
| CUGUGCUACACAUCGUAUGUACCGAAUCGGGUUUUUUUGGGUUUUUUUGGGGUUUUUUUGGGAAAGUAUUAUGUUACGCCGUUCGGAUCU | -0.201 |
| CACAGACAACACGCACCCACACAGACUCAGAGGGAAGGGGUUGGGAUGGGGACAGGGUGCACAGCAGGGCGGGGUAGGACCCCAGCCCCU | 1.44 |
| GUCCUGUGCUACACAUCGUAUGUACCGAAUCGGUUUUUUGGGUUUUUUGGGUUUUUUGGAAAGUAUUAUGUUACGCCGUUCGGAUCUGCA | -0.525 |
| UCCUGUGCUACACAUCGUAUGUACCGAAUCGGUUUUUUGGGGUUUUUUGGUUUUUUGGGAAAGUAUUAUGUUACGCCGUUCGGAUCUGCA | -0.1 |
| CAAGUCCUGUGCUACACAUCGUAUGUACCGAAUCGGGAAAGGGAAAGGGGAAAGGGAAAGUAUUAUGUUACGCCGUUCGGAUCUGCACUU | 0.294 |
| UGAAUCCUUCCUUGAUGAUGAAGAGGUAUGUCAACAAGGGUAAUAAUUUGUUUUCUUCUGAUUACUCUCAUAUUUUUAUUAUCUUUUAUU | -1.05 |
| AAGUCCUGUGCUACACAUCGUAUGUACCGAAUCGGAAAAAAAGGAAAGGUUUUUGGAAAGUAUUAUGUUACGCCGUUCGGAUCUGCACUU | -1.25 |
| UGGCCCUGGUGGCAUGCGGGGAGGAGGAGGUGGCCUCAUGGAUCGUGGUGGUCCCGGUGGAAUGUUCAGAGGUGGCCGUGGUGGAGACAG | 0.395 |
| UGGCCCUGGUGGCAUGCGGGGAGGAAGAGGUGGCCUCAUGGAUCGUGGUGGUCUCGGUGGAAUGUUCAGAGGUGGCCGUGGUGGAGACAG | 0.191 |
| AGUCCUGUGCUACACAUCGUAUGUACCGAAUCGGGGAGGGGUGGGGUUUUUUUGGGGAAAGUAUUAUGUUACGCCGUUCGGAUCUGCACU | 1.02 |
| UGGGCGGUGGAUUUUGUUUAUUUUUUUAGCUCAUUUCCAGGGGUGGGAAUUUUUUUUUAAUAUGUGUCAUGAAUAAAGUUGUUUUUGAAA | 0.333 |
| UUUGAAGAUCAGCUUCAGCAAUGGUUGUCUGAAGACUCAGGAGCAUUUACGGAUUUAACUUCCCUUCCCCUCUAUCUUCCUCAGACUCUA | -0.108 |
| UGGCCCUGGUGGCAUGCGGGGAGGAAGAGGUGGCCUCAUGGAUCGUGGUGGUCCCGGUGUAAUGUUCAGAGGUGGCCGUGGUGGAGACAG | -0.0493 |
| CCAACUCCUAUAAUUCCCUAUCUUUUAGUUUUAGUUGCAGAAACAUUUUGUGGUCAUUAAGCAUUGGGUGGGUAAAUUCAACCACUGUAA | 0.479 |

Set 5
Target: CEBPD, bZIP domain (human)
Technique: DHFR protein complementation
Medium: yeast
Notes: single substitutions, most at no-binding floor
Reference: wild-type JUN-FOS pair
Direction: higher = stronger binding
Starting sequence: JUN, bZIP domain (human); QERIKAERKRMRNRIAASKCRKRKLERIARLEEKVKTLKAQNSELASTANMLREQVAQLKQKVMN; partner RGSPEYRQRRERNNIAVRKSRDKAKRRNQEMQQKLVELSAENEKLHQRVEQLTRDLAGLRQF
| Change | binding fitness |
| --- | --- |
| N42W | -1.45 natural log |
| L38T | -1.5 natural log |
| S47G | -1.3 natural log |
| S47C | -1.32 natural log |
| A40Y | -1.44 natural log |
| E54H | -1.49 natural log |
| L38A | -1.29 natural log |
| A57N | -1.36 natural log |
| Q41R | -1.37 natural log |
| K36E | -1.38 natural log |
| N42Y | -1.48 natural log |
| I28W | -1.22 natural log |
| K36D | -1.32 natural log |
| K34R | -1.35 natural log |
| K39E | -1.2 natural log |
| K36L | -1.28 natural log |
| R30L | -1.36 natural log |
| E54D | -1.46 natural log |
| I28R | -1.3 natural log |
| Q55H | -1.52 natural log |

Set 6
Target: CCND2, cyclin fold, Cln2 fusion (human)
Technique: yeast growth competition, sequencing
Medium: yeast
Notes: weak parent motif
Reference: not given
Direction: higher = stronger binding
Starting sequence: ORC1 docking peptide (human); PRARKRLELGNLG
| Change | normalised enrichment score |
| --- | --- |
| PRARKRLALGNLG [E8A] | 0.275 |
| PRARKRLERGNLG [L9R] | 0.325 |
| PRDRKRLELGNLG [A3D] | 0.196 |
| PEARKRLELGNLG [R2E] | 0.15 |
| PRARKRLELGNLQ [G13Q] | -0.0615 |
| PRARKRLELGNLW [G13W] | -0.591 |
| PPARKRLELGNLG [R2P] | -0.22 |
| PRARKRLEFGNLG [L9F] | 0.227 |
| CRARKRLELGNLG [P1C] | 0.652 |
| PRARKRLESGNLG [L9S] | 0.371 |
| PRARKRKELGNLG [L7K] | 0.701 |
| PRAEKRLELGNLG [R4E] | 0.18 |
| PRATKRLELGNLG [R4T] | 0.0241 |
| PRARKRLENGNLG [L9N] | -0.37 |
| NRARKRLELGNLG [P1N] | 0.236 |
| PRARKRLYLGNLG [E8Y] | 0.307 |
| PRAVKRLELGNLG [R4V] | 0.129 |
| PRNRKRLELGNLG [A3N] | 0.518 |
| PRARKRLELGNLY [G13Y] | -0.224 |
| PRARKRLELGNPG [L12P] | 0.407 |
| PRAFKRLELGNLG [R4F] | 0.0956 |
| PRYRKRLELGNLG [A3Y] | 0.483 |
| PRARKRHELGNLG [L7H] | -0.201 |
| HRARKRLELGNLG [P1H] | 0.1 |
| PAARKRLELGNLG [R2A] | 0.161 |

Excerpt of the above (set 2):
| Sequence | E-score |
| --- | --- |
| CCCAATTC | -0.279 |
| AGGTTCGC | 0.0655 |
| CCCTAACC | -0.0205 |
| ACTACGCC | 0.0972 |
| AGCGTCTC | 0.129 |
| AATGGAGG | -0.142 |
| CAAGCTCG | -0.132 |
| AAAGCTGC | -0.0284 |
| AGGTAGCA | -0.216 |
| AGCCGCTG | 0.286 |
| CAGCACAA | -0.0758 |
| CAAACCCG | 0.221 |
| CGCATGAG | 0.0772 |
| ACAAGTTA | 0.0593 |
